Results from different studies.
Compare with care: the assays were run in different laboratories. ± gives the spread as reported. Values after ≈ are worked out from the molar mass of the structure shown.
UniProt Q9UBS5, sequence (whole entry, looked up): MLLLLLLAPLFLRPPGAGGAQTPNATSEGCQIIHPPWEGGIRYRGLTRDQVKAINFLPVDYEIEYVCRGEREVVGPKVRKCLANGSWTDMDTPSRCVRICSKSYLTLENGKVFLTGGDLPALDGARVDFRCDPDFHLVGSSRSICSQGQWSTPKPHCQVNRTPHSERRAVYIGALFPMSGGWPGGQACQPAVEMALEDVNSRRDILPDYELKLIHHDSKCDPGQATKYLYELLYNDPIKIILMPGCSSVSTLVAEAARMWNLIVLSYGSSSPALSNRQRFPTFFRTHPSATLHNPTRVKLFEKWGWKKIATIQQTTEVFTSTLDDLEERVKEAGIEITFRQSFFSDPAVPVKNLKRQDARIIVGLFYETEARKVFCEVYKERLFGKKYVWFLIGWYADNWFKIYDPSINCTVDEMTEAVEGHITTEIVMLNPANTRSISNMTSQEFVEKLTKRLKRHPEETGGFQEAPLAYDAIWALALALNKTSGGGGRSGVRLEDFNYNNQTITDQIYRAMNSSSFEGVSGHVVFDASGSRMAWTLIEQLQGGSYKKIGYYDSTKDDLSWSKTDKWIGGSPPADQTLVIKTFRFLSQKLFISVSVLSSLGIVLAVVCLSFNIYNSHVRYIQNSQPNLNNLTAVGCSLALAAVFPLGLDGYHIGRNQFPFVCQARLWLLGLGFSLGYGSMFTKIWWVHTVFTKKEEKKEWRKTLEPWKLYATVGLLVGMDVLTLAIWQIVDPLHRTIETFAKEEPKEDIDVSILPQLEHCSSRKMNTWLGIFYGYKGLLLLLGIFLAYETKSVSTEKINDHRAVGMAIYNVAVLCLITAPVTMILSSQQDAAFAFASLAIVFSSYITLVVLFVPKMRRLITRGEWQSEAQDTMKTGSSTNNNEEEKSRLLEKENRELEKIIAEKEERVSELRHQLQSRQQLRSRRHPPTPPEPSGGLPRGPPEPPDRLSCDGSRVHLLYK

SMILES	tested on	test	system	setting	how to read	endpoint	result
O=C1Nc2cc3[nH]nc(-c4ccncc4)c3cc2CN1Cc1ccccc1		CTCAE v4.03	advanced solid tumour patients	intravenous, 0.9 mg/kg, schedules 1/2		patients with dizziness	0%
Clc1ccc(-c2ccccc2)cc1			Sprague-Dawley rats, female, serum	inhalation, 23 µg/rat, 0 h after exposure		calcium	10 ± 2 mg/dL
O=C1O[C@H]2[C@@H]3OC(=O)c4cc(O)c(O)c(O)c4-c4c(O)c(O)c5oc(=O)c6c(c(O)c(O)c7oc(=O)c4c5c76)-c4c(cc(O)c(O)c4O)C(=O)OC[C@H]3OC(O)[C@@H]2OC(=O)c2cc(O)c(O)c(O)c2-c2c1cc(O)c(O)c2O (mixture of isomers)		subacute oral toxicity	BALB/c mice	oral, 1000 mg/kg/day, 28 days		liver weight	1.4 g
C[C@H]1CN(c2n[nH]c3nc(N[C@H]4CC[C@H](NS(=O)(=O)CCC(F)(F)F)CC4)ncc23)CCO1	Splicing factor 3B subunit 3 (Homo sapiens, UniProt Q15393)	Kinobeads competition, item: SF3B3		0.032 µM, unit not given	relative to: vehicle	remaining binding	0.98
CC(C)C[C@H](NC(=O)[C@H](CCC(N)=O)NC(=O)[C@H](C)NC(=O)[C@H](C)NC(=O)[C@H](CCCNC(=N)N)NC(=O)[C@H](CCCNC(=N)N)NC(=O)[C@H](CCCNC(=N)N)NC(=O)[C@H](CC(C)C)NC(=O)[C@H](Cc1c[nH]cn1)NC(=O)[C@@H](NC(=O)[C@H](CCCCN)NC(=O)[C@H](CCCNC(=N)N)NC(=O)[C@H](CCCNC(=N)N)NC(=O)[C@H](CCCNC(=N)N)NC(=O)[C@H](CCC(N)=O)NC(=O)[C@H](CCCNC(=N)N)NC(=O)[C@H](CCCNC(=N)N)NC(=O)[C@H](CCCCN)NC(=O)[C@H](CCCCN)NC(=O)[C@H](CCCNC(=N)N)NC(=O)CNC(=O)[C@@H](N)Cc1ccc(O)cc1)[C@@H](C)O)C(=O)N[C@@H](CCCCN)C(N)=O		hanging wire test	rat	intra-CA1 bilateral, dose not given	relative to: saline	latency to fall	no effect
CC[C@H](C)[C@@H]1NC(=O)[C@@H]2CCCN2C(=O)[C@H](CC(C)C)NC(=O)[C@H](CC(C)C)NC(=O)CNC(=O)[C@@H](NC(=O)[C@@H](NC(=O)[C@H](CC(=O)O)NC(=O)CNC(=O)[C@@H](NC(=O)[C@H](C)NC(=O)CNC(=O)[C@H](CCCCN)NC(=O)[C@H](CC(C)C)NC(=O)[C@H](CC(C)C)NC(=O)[C@H](CCCCN)NC(=O)CNC(=O)[C@@H](NC(=O)[C@@H](N)CC(C)C)C(C)C)C(C)C)C(C)C)CSSC[C@@H](C(=O)O)NC1=O			female C57BL/6 mice, plasma	intravenous, 10 mg/kg, two-compartment model		elimination half-life	6.59 ± 0.23 h
C[C@]1(CO)Cc2ncn(-c3ccc(C#N)c(Cl)c3)c2C(=O)O1			human	0.7 mg single dose		subjects with any TEAE	28.6%
CC(C)NCCCC[C@@H]1NC(=O)[C@H](Cc2ccc(O)cc2)NC(=O)[C@H](Cc2ccccc2)NC(=O)CC[C@H](C(=O)N[C@@H](CCCCNC(C)C)C(=O)N[C@@H](CCCCNC(=O)[C@H](CCC(=O)O)NC(=O)[C@H](CCC(=O)O)NC(=O)[C@H](CCC(=O)O)NC(=O)CN2CCN(CC(=O)O)CCN(CC(=O)O)CC2)C(N)=O)NC(=O)CNC(=O)[C@H](Cc2ccc3ccccc3c2)NC(=O)[C@@H](CCCNC(=N)N)NC1=O [fluorine-18 labelled]		PET/CT	female CB17 SCID beige mice, subcutaneous MM.1S xenograft, tumour	intravenous		standardized uptake value	1.95 ± 0.11 SUV
C[C@@H]1OC(=O)NN=C1c1ccc(-c2ccc(F)cc2)c(C(F)(F)F)c1		phase I trial, item: Presyncope all grades	human patients	20 mg loading then 1 mg daily		patients with adverse event	0%
O=c1ccc2cc3ccoc3cc2o1		post-procedure stability	rat plasma	8 ng/mL, 3 h, room temperature		accuracy	115%
O=C1c2c(O)c(=O)ccn2N([C@@H]2c3ccccc3SCc3c2ccc(F)c3F)[C@@H]2COCCN12			BALB/c mouse	subcutaneous, 2 mg/kg q24h		Cmax	101 ng/mL
CNC(=O)CC1C(=O)N(C2CCN(C3CCC(C(C)C)CC3)CC2)c2ccccc21 (stereo not shown)			conscious Sprague-Dawley rat	intravenous bolus, 30 nmol/kg		sedation duration	~30 min
CC(C)CC(=O)OC[C@H]1O[C@@](C#N)(c2ccc3c(N)ncnn23)[C@H](O)[C@@H]1O	ABCB1 (Homo sapiens, UniProt P08183)	basolateral to apical transport	Caco-2	9 µM, 2 h		recovery	74.9%
C[C@@H](NC(=O)N1C(=O)[C@H](Cc2ccnc(N)c2)[C@H]1C(=O)O)C1CCCCC1			healthy Chinese adult volunteers	continuous intravenous infusion, dose not given, 5.0 days, CTCAE 5.0, all doses		hypokalemia	2.5%
CC[C@H](C)[C@H](NC(=O)[C@H](Cc1ccccc1)NC(=O)[C@H](CCC(=O)O)NC(=O)[C@H](CCCNC(=N)N)NC(=O)[C@H](C)NC(=O)[C@H](C)NC(=O)[C@H](CCC(N)=O)NC(=O)[C@H](CCC(=O)O)NC(=O)[C@H](CCC(=O)O)NC(=O)[C@H](CC(C)C)NC(=O)[C@H](Cc1ccc(O)cc1)NC(=O)[C@H](CO)NC(=O)[C@H](CO)NC(=O)[C@@H](NC(=O)[C@H](CC(=O)O)NC(=O)[C@H](CO)NC(=O)[C@@H](NC(=O)[C@H](Cc1ccccc1)NC(=O)[C@@H](NC(=O)CNC(=O)[C@H](CCC(=O)O)NC(=O)[C@H](C)NC(=O)CCc1c[nH]cn1)[C@@H](C)O)[C@@H](C)O)C(C)C)C(=O)N[C@@H](C)C(=O)N[C@@H](Cc1c[nH]c2ccccc12)C(=O)N[C@@H](CC(C)C)C(=O)N[C@H](C(=O)N[C@@H](CCCNC(=N)N)C(=O)NCC(=O)N[C@@H](CCCNC(=N)N)C(=O)N[C@@H](CCCCNC(=O)COCCOCCNC(=O)COCCOCCNC(=O)CC[C@H](NC(=O)CCCCCCCCCCCCCCCCC(=O)O)C(=O)O)C(=O)NCC(=O)NCC(=O)N[C@@H](CO)C(=O)N[C@@H](CCCCNc1c(NCCCCCN(O)C(=O)CCC(=O)NCCCCCN(O)C(=O)CCC(=O)NCCCCCN(O)C(C)=O)c(=O)c1=O)C(=O)O)C(C)C [zirconium-89 labelled]		ex vivo gamma counting	rat, spleen	subcutaneous, 3 nmol/kg, 168 h, with: [89Zr]-labelled peptide		tissue uptake	0.3 %ID/g
COc1cc2c(Oc3ccc4[nH]c(C)cc4c3F)ccnc2cc1OCC1(N)CC1			paediatric recurrent refractory sarcoma	8 mg		grade 3 blurred vision	0%
C[C@@H](O)[C@@H](CO)NC(=O)[C@@H](CCCNC(=N)N)NC(=O)[C@@H]1CCCN1C(=O)[C@@H]1CSSC[C@H](NC(=O)[C@H](Cc2ccccc2)NC(=O)CN2CCN(CC(=O)O)CCN(CC(=O)O)CCN(CC(=O)O)CC2)C(=O)N[C@@H](Cc2ccc(O)cc2)C(=O)N[C@@H](Cc2ccccc2)C(=O)N[C@@H](CCC(N)=O)C(=O)N[C@@H](CC(N)=O)C(=O)N1 [gallium-68 labelled]			Wistar rat, brain	intravenous, 8 MBq, 120 min, group mean		tissue uptake	0.01 %ID/g
COc1cc(Nc2ncc(F)c(Nc3ccc4c(n3)NC(=O)C(C)(C)O4)n2)cc(OC)c1OC	GABBR1 (Homo sapiens, UniProt Q9UBS5)					IC50	> 10 µM
Nc1ncc(-c2nc(N3CCOCC3)nc(N3CCOCC3)n2)c(C(F)F)n1		shake flask	buffer	24 h, pH 1.2, 25 °C		thermodynamic solubility	34.5 µM (≈ 13.6 µg/mL)

Repeated from above:
SMILES	tested on	test	system	setting	how to read	endpoint	result
C[C@@H](NC(=O)N1C(=O)[C@H](Cc2ccnc(N)c2)[C@H]1C(=O)O)C1CCCCC1			healthy Chinese adult volunteers	continuous intravenous infusion, dose not given, 5.0 days, CTCAE 5.0, all doses		hypokalemia	2.5%
CC[C@H](C)[C@H](NC(=O)[C@H](Cc1ccccc1)NC(=O)[C@H](CCC(=O)O)NC(=O)[C@H](CCCNC(=N)N)NC(=O)[C@H](C)NC(=O)[C@H](C)NC(=O)[C@H](CCC(N)=O)NC(=O)[C@H](CCC(=O)O)NC(=O)[C@H](CCC(=O)O)NC(=O)[C@H](CC(C)C)NC(=O)[C@H](Cc1ccc(O)cc1)NC(=O)[C@H](CO)NC(=O)[C@H](CO)NC(=O)[C@@H](NC(=O)[C@H](CC(=O)O)NC(=O)[C@H](CO)NC(=O)[C@@H](NC(=O)[C@H](Cc1ccccc1)NC(=O)[C@@H](NC(=O)CNC(=O)[C@H](CCC(=O)O)NC(=O)[C@H](C)NC(=O)CCc1c[nH]cn1)[C@@H](C)O)[C@@H](C)O)C(C)C)C(=O)N[C@@H](C)C(=O)N[C@@H](Cc1c[nH]c2ccccc12)C(=O)N[C@@H](CC(C)C)C(=O)N[C@H](C(=O)N[C@@H](CCCNC(=N)N)C(=O)NCC(=O)N[C@@H](CCCNC(=N)N)C(=O)N[C@@H](CCCCNC(=O)COCCOCCNC(=O)COCCOCCNC(=O)CC[C@H](NC(=O)CCCCCCCCCCCCCCCCC(=O)O)C(=O)O)C(=O)NCC(=O)NCC(=O)N[C@@H](CO)C(=O)N[C@@H](CCCCNc1c(NCCCCCN(O)C(=O)CCC(=O)NCCCCCN(O)C(=O)CCC(=O)NCCCCCN(O)C(C)=O)c(=O)c1=O)C(=O)O)C(C)C [zirconium-89 labelled]		ex vivo gamma counting	rat, spleen	subcutaneous, 3 nmol/kg, 168 h, with: [89Zr]-labelled peptide		tissue uptake	0.3 %ID/g
